Measurements collected from several papers.
Each line is one published result; not all experiments were run side by side. Several values in a cell are separate wells, animals, samples, runs or records. ± gives the spread as reported.

Compound	cell line	assay	test system	setting	scale	endpoint	result
CCOc1cncc(-c2ccc(NC(=O)C3(c4ccnc(NS(=O)(=O)C5CC5)n4)CCOCC3)nc2)n1	renal cancer	cell viability, CellTiter-Glo	DMSO 0.1%	72 h, line code 2282		IC50	5.29 µM
Cn1ncc2cc(-c3cncc(Cl)c3N3CCC4(CCNC4=O)CC3)ccc21	LS174T	gene expression, microarray, item: PLAC8 mRNA		concentration not given, 4 h	baseline: untreated cells	log2 fold change	2.17
Cc1ccncc1.[Cl-].[Cl-].[Ru+2].c1cc(-c2ccc3cccnc3n2)nc(-c2ccc3cccnc3n2)c1.c1ccc2cc3nc4c5cccnc5c5ncccc5c4nc3cc2c1	B16-F10	resazurin		added: light 733 nm, 100 J/cm2	baseline: dark EC50 over light EC50	phototoxicity index	36
CC[C@H](C)[C@H](NC(=O)[C@H](CCCNC(=N)N)NC(C)=O)C(=O)N[C@H](C(=O)N[C@@H](Cc1ccc(O)cc1)C(=O)N[C@@H](CC(=O)O)C(=O)N[C@@H](CCCNC(=N)N)C(=O)N[C@H]1CCC(=O)NCCCC[C@@H](C(=O)N[C@@H](CS)C(=O)N[C@@H](CCCNC(=N)N)C(N)=O)NC(=O)[C@H](CCSC)NC(=O)[C@H](CC(C)C)NC(=O)[C@H](Cc2ccccc2)NC1=O)[C@@H](C)CC	HeLa stably expressing HaloTag-GFP	chloroalkane penetration		0.74 µM, 4 h, 37 °C		cell uptake	84 ± 2%
C=CC(=O)N1[C@@H](c2ccc3c(c2)OCO3)c2[nH]c3ccccc3c2C[C@H]1C(=O)NC1CC1	rat DRG neurons			0.1235 µM, 48 h, added: vincristine 40 nM		mean neuron degeneration	82.4%
CCN(C(=O)c1cc(F)ccc1Oc1nncnc1N1CCC2(C1)CN([C@H](CCCN(C)CCOC)C(C)C)C2)C(C)C	OVCAR-4	cell growth or viability		72 h		GI50	> 10 µM
COc1cc(N2CCN(C(=O)CCOCCNC(=O)[C@@H]3CCCN3)CC2)ccc1Nc1ncc(Cl)c(Nc2ccccc2P(C)(C)=O)n1	NCI-H3122	flow cytometry		500 nM, 24 h, mean of replicates		G2 phase cells	10%
CC(=O)N(C)Cc1cccc(-c2cc3c(c(C(F)(F)F)c2)CCCC3N(C)C(=O)CCOCCOCCC(=O)N(C)C2CCCc3c2cc(-c2cccc(CN(C)C(C)=O)c2)cc3C(F)(F)F)c1 (stereo not drawn)	CHO	immunoblot, item: GADD34		20 µM		time to onset of induction	1 h
COc1ccc(NC(=O)c2c(Nc3ccccc3)sc(C(=O)N/N=C/c3ccc(OC)c(OC)c3)c2NC(C)=O)cc1	HCT-116	cell growth or viability, SRB		100 µM, 48 h		viability	32.4%
CC(C)(C)c1cc(-c2ccc3cccnc3n2)nc(-c2ccc3cccnc3n2)c1.COc1ccncc1.[Cl-].[Cl-].[Ru+2].c1ccc2cc3nc4c5cccnc5c5ncccc5c4nc3cc2c1	B16-F10	cytotoxicity, resazurin		dark		EC50	92.8 ± 6 µM
CO[C@@H]1[C@@H](OC(N)=O)[C@@H](O)[C@H](Oc2ccc3c(O)c(NC(=O)c4ccc(O)c(CC=C(C)C)c4)c(=O)oc3c2C)OC1(C)C	DLD-1 BRCA2-/-			300 µM, replicate A	baseline: untreated	colony survival	0.339%
O=C(C[Se]C(=O)c1cccnc1Nc1cccc(C(F)(F)F)c1)Nc1cccc(C(F)(F)F)c1	NCI60 breast subpanel	cell growth		10 µM, 48 h, one-dose		mean growth percent	-61.9%
CC(C)(C)c1cc(-c2ccc3cc4ccccc4nc3n2)nc(-c2ccc3cc4ccccc4nc3n2)c1.[Cl-].[Cl-].[Ru+2].c1ccc2cc3nc4c5cccnc5c5ncccc5c4nc3cc2c1	B16-F10	resazurin		added: light 633 nm, 100 J/cm2	baseline: dark EC50 over light EC50	phototoxicity index	1
CC1(C)CC[C@@]2(CO)C(=C3C=C[C@@H]4[C@@]5(C)CC[C@H](O)[C@@](C)(CO)[C@@H]5CC[C@@]4(C)[C@]3(C)C[C@@H]2O)C1	HepG2, SIRT1 siRNA	Western blot, item: PGC-1α		concentration not given, high dose, unit not given, added: ethanol	baseline: β-actin	protein level	0.746 and 1.11 and 0.926
CCN(CC)CC(=O)Nc1cccc(-n2cc(-c3ccc4ccc(-c5cn(-c6cccc(NC(=O)CN(CC)CC)c6)nn5)cc4c3)nn2)c1	RCC4	PCR angiogenesis array, item: EDN1		5 x IC50, 6 h, normoxia	baseline: untreated	fold regulation	-2.76
O=C(C[Se]C(=O)c1ccccc1Nc1ccccc1)Nc1cccc(C(F)(F)F)c1	NCI60 breast subpanel	NCI60 five-dose screen				GI50	1.99 µM
CC(C)c1ccc(N(C)c2ccc3c(c2)OCC[C@H]3CNc2cnccc2C(=O)O)cc1	HuH-28	cell growth, CellTiter-Glo		7 days		IC50	≥ 10 µM
[BH3-][P+]1(c2ccccc2)CCCCC1	HCT-116	annexin V/PI flow cytometry		IC50, 72 h		early apoptotic cells	6.15%
CN1CCCNC(=O)c2cccc(c2)C(=O)NCCCN(C)CCCNc2cccc3c2C(=O)c2cccc(c2C3=O)NCCC1	SAS	RNA-Seq, item: BIN3 mRNA		1 µM, 6 h	baseline: untreated cells	log2 fold change	-0.703
CN1CCC(N[C@H]2CCc3[nH]c4c(C(N)=O)ccc(-c5ccccc5Cl)c4c3C2)CC1	HuCCT-1	cell growth or viability				IC50	1 µM
Cc1cc(Cl)cc(-c2ccnc3cc(CN4C(=O)C5C(C4=O)C5(C)C)sc23)c1C[C@@H]1CNCCO1 (stereo partly drawn)	CHP-212 parental (wild-type USP7)	PI flow cytometry		0.1 µM, 24 h		cells in G1 phase	57.6% and 63.9% and 62%
Cc1ncsc1-c1ccc(C(C)NC(=O)C2CC(O)CN2C(=O)C(NC(=O)CCCCCCCCCCN2CCCC(Nc3ncc(Cl)c(Nc4ccccc4S(=O)(=O)C(C)C)n3)C2)C(C)(C)C)cc1 (stereo not drawn)	22Rv1	RNA-seq, item: MOB3A mRNA		concentration not given	baseline: DMSO	log2 fold change	-2.11
CNS(=O)(=O)Nc1nccc(Cc2c(C)c3ccc(Oc4ncccc4F)cc3oc2=O)c1F	Toledo	cell viability, CellTiter-Glo		7 days		IC50	> 1 µM
CC1(C)C[C@@H](Nc2cccc(-c3sc(C(=O)O)c(OCC(=O)O)c3Cl)c2)CCN1S(=O)(=O)Cc1cccc(NC(=O)CN2CCC(c3ccc4c(c3)oc(=O)n4C3CCC(=O)NC3=O)CC2)c1 (stereo partly drawn)	B16-F10	HTRF, item: phospho-STAT1 Tyr701		0.041 µM, added: IFN-γ	baseline: min-max normalised	pSTAT1 level	13.2% and 10.2% and 8.08% and 10.6% and 12.4% and 14.1%

For quick reference, copied from above:
Compound	cell line	assay	test system	setting	scale	endpoint	result
C=CC(=O)N1[C@@H](c2ccc3c(c2)OCO3)c2[nH]c3ccccc3c2C[C@H]1C(=O)NC1CC1	rat DRG neurons			0.1235 µM, 48 h, added: vincristine 40 nM		mean neuron degeneration	82.4%
CCN(C(=O)c1cc(F)ccc1Oc1nncnc1N1CCC2(C1)CN([C@H](CCCN(C)CCOC)C(C)C)C2)C(C)C	OVCAR-4	cell growth or viability		72 h		GI50	> 10 µM
